Measured values gathered from unrelated publications.
Protocols differ between the studies behind these lines. ± marks the error that the study gave. In brackets after ≈: the same amount, converted by molar mass.

SMILES | test | system | conditions | scale | measurement | value
C[C@@H]1N=C(c2ccccc2F)c2cc(Br)ccc2NC1=O | – | male Wistar rat, plasma | intraperitoneal, 2 mg/kg, 1 h | – | concentration | 618 nM
C=C(C)[C@@H]1CCC(C)=C[C@H]1c1c(O)cc(CCCCC)cc1O | – | healthy human volunteers | dose not given, together with: fluconazole | – | subjects reporting adverse events | 19%
COc1ccsc1CNCC[C@@]1(c2ccccn2)CCOC2(CCCC2)C1 | – | healthy human, normal renal function, plasma | intravenous, 1 mg single dose, geometric mean | – | volume of distribution (Vz) | 187 L
Cc1ncc2n1-c1ccc(Cl)cc1C(c1ccccc1F)=NC2 | – | healthy men, plasma | oral, 7.5 mg, without amenamevir | – | Cmax LS mean | 34 ng/mL
C#Cc1ccc2c(c1)C(c1ccccn1)=NCc1c(-c3cnco3)ncn1-2.Cl | shake flask | HCl buffer | 24 h, pH 1, 25 °C | – | solubility | 13.1 mg/mL
C[C@H]1CNCCc2ccc(Cl)cc21 | – | Sprague-Dawley rat, male, plasma | subcutaneous, 3 mg/kg, 30 min | – | plasma concentration | 97.5 ± 7.97 ng/mL
CCCCCCCCCCC(=O)O[C@H]1CC[C@H]2[C@@H]3CCC4=CC(=O)CC[C@]4(C)[C@H]3CC[C@]12C | – | human blood | 600 ng/mL, 30 min, 4 °C, NaF 5 mg/mL, K2 oxalate 4 mg/mL | relative to: no compound added | testosterone change | 11.9%
CN[C@@](C)(C[18F])C(=O)O | – | SCID mouse A549 xenograft, kidney | 15 min, post injection | – | tissue uptake | 31 ± 3.8 %ID/g
CN1C(=O)CC(=O)N(c2ccccc2)c2cc(Cl)ccc21 | – | mouse wild-type and Scn1a+/−, plasma | intraperitoneal, 10 mg/kg, single dose | – | Tmax | 25 min
C=C1C[C@@H]2[C@H](CC[C@]3(C)C(=O)CC[C@@H]23)[C@@]2(C)C=CC(=O)C=C12 | LC-MS/MS | postmenopausal breast cancer women, plasma | oral, 25 mg/day, 2 h, self-reported White race | – | median plasma concentration | 7.9 ng/mL
O=C(O)c1nn(Cc2ccc(Cl)cc2Cl)c2ccccc12 | mitochondrial swelling | BALB/cByJ female mouse liver mitochondria | 30 min, together with: succinate + rotenone | relative to: CaCl2 maximal swelling | EC20 | 660 µM
CO[C@H]1/C=C/O[C@@]2(C)Oc3c(C)c(O)c4cc(c(/C=N/N5CCN([11CH3])CC5)c(O)c4c3C2=O)NC(=O)/C(C)=C\C=C\C(C)[C@H](O)[C@@H](C)[C@@H](O)[C@@H](C)[C@H](OC(C)=O)[C@@H]1C (stereo partly shown) | – | baboon, lung | 10 mg/kg, 90 min | – | lung concentration | 6.78 µg/mL
CC1N=C(c2ccccc2F)c2cc(NC(C)(C)C)ccc2NC1=O (stereo not shown) | shake flask | PBS | 24 h, pH 7.4 | – | aqueous solubility | 394 µM (≈ 134 µg/mL)
N[C@@]1(c2ccccc2Cl)CCC[C@@H](O)C1=O | – | female CD-1 mice, brain | intravenous, 50 mg/kg, 10 min | – | brain concentration | 19.8 µg/g
CN1CC[C@@]23CCCC[C@@H]2[C@@H]1Cc1ccc(O)cc13 | – | Wistar rat, both sexes, plasma | oral, 5 mg/kg DEM, DEM 2 h after pretreatment, together with: QN 2.5 mg/kg single pretreatment | – | Tmax | 27.6 ± 6 min
CCCCCc1cc(O)c2c(c1)OC(C)(C)[C@@H]1CCC(C)=C[C@@H]21 | substrate, item: 11-hydroxy metabolite | pooled human liver microsomes | 2 min, unbound concentration | – | Km | 0.0014 ± 0.0002 µM
CC(C)C[C@@H]1NC(=O)[C@H](C)N(C)C(=O)[C@H](Cc2ccccc2)NCc2cc(c[nH]2)CNC1=O | – | PAMPA | 100 µM, 17 h, pH 6.4 | – | Papp | 0.0288 ×10⁻⁶ cm/s
COc1ccc2c(c1)[C@]13CCCC[C@@H]1[C@H](C2)N(C)CC3 | – | Wistar rat, both sexes, plasma | oral, 5 mg/kg, 2 h after pretreatment, together with: single TCE 400 mg/kg | – | t1/2 | 143 ± 40.2 min
Cc1ncc2n1-c1ccc(Cl)cc1C(c1ccccc1F)=NC2 | – | human CYP3A5*1/*3 and *1/*6, serum | oral, median, together with: ketoconazole 200 mg | – | Tmax | 60 min

Some of these lines once more:
SMILES | test | system | conditions | scale | measurement | value
Cc1ncc2n1-c1ccc(Cl)cc1C(c1ccccc1F)=NC2 | – | healthy men, plasma | oral, 7.5 mg, without amenamevir | – | Cmax LS mean | 34 ng/mL
CCCCCc1cc(O)c2c(c1)OC(C)(C)[C@@H]1CCC(C)=C[C@@H]21 | substrate, item: 11-hydroxy metabolite | pooled human liver microsomes | 2 min, unbound concentration | – | Km | 0.0014 ± 0.0002 µM
